Results from different studies.
Compare with care: the assays were run in different laboratories. ± marks the error that the study gave.
Method: steady-state kinetics
B1: protein F222A (Planktothrix agardhii, UniProt F5B6Z0); chain MIVNVIQKDRLKEQKLQFIRNHQQAFDVEPIYPLPLFEDFVTSIEGDCSLEASCKIESDKLIASRFLLFFEDKTQEWQKYLHQSLTFFGLVENRVGVKINYSLLQQFLGSSFDFSKVTVLSAGIDLRNNLAESSLKMHIRIKDYPEKLDKAFALSDGAADGNYLKDFVNLIGFDFYFNGKSEIEIYAEVQEDDFFKPEINNLVWQHFPKTALQPLKASSLFATGLSKANNNPVLYYHLKNRQDLTNYFKLNDTAQRVHSFYQHQDILPYMWVGTAQKELEKTRIENIRLYYYKSFKMESN
B2: cyc1 V329M (Streptomyces coelicolor, UniProt Q9K499); chain MHAFPHGTTATPTAIAVPPSLRLPVIEAAFPRQLHPYWPKLQETTRTWLLEKRLMPADKVEEYADGLCYTDLMAGYYLGAPDEVLQAIADYSAWFFVWDDRHDRDIVHGRAGAWRRLRGLLHTALDSPGDHLHHEDTLVAGFADSVRRLYAFLPATWNARFARHFHTVIEAYDREFHNRTRGIVPGVEEYLELRRLTFAHWIWTDLLEPSSGCELPDAVRKHPAYRRAALLSQEFAAWYNDLCSLPKEIAGDEVHNLGISLITHHSLTLEEAIGEVRRRVEECITEFLAVERDALRFADELADGTVRGKELSGAVRANVGNMRNWFSSMYWFHHESGRYMVDSWDDRSTPPYVNNEAAGEK
B3: enzyme (Salmonella enterica, UniProt P31570); chain MSDERYQQRQQKVKDRVDARVAQAQEERGIIIVFTGNGKGKTTAAFGTAARAVGHGKNVGVVQFIKGTWPNGERNLLEPHGVEFQVMATGFTWETQNREADTAACMAVWQHGKRMLADPLLDMVVLDELTYMVAYDYLPLEEVISALNARPGHQTVIITGRGCHRDILDLADTVSELRPVKHAFDAGVKAQMGIDY
B4: onr (Enterobacter cloacae, UniProt P71278); chain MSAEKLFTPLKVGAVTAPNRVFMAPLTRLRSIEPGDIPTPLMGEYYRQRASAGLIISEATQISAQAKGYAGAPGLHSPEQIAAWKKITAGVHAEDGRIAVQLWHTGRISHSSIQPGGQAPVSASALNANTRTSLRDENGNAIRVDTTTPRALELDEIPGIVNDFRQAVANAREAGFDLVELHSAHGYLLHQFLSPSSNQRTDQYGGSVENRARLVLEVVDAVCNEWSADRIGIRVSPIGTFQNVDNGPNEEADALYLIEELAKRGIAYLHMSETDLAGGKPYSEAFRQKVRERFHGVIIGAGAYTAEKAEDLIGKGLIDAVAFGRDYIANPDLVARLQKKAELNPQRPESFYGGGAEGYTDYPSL
B5: SUOX R529M/V531M/Y400N (Homo sapiens, UniProt P51687); chain ESTHIYTKEEVSSHTSPETGIWVTLGSEVFDVTEFVDLHPGGPSKLMLAAGGPLEPFWALYAVHNQSHVRELLAQYKIGELNPEDKVAPTVETSDPYADDPVRHPALKVNSQRPFNAEPPPELLTENYITPNPIFFTRNHLPVPNLDPDTYRLHVVGAPGGQSLSLSLDDLHNFPRYEITVTLQCAGNRRSEMTQVKEVKGLEWRTGAISTARWAGARLCDVLAQAGHQLCETEAHVCFEGLDSDPTGTAYGASIPLARAMDPEAEVLLAYEMNGQPLPRDHGFPVRVVVPGVVGARHVKWLGRVSVQPEESYSHWQRRDNKGFSPSVDWETVDFDSAPSIQELPVQSAITEPRDGETVESGEVTIKGYAWSGGGRAVIRVDVSLDGGLTWQVAKLDGEEQRPRKAWAWRLWQLKAPVPAGQKELNIVCKAVDDGYNVQPDTVAPIWNLMGMLSNAWHRVHVYVSP
B6: ASRGL1 (Homo sapiens, UniProt Q7L266); chain 1 MNPIVVVHGGGAGPISKDRKERVHQGMVRAATVGYGILREGGSAVDAVEGAVVALEDDPEFNAGCGSVLNTNGEVEMDASIMDGKDLSAGAVSAVQCIANPIKLARLVMEKTPHCFLTDQGAAQFAAAMGVPEIPGEKLVTERNKKRLEKEKHEKGAQKTDCQKNLG; chain 2 TVGAVALDCKGNVAYATSTGGIVNKMVGRVGDSPCLGAGGYADNDIGAVSTTGHGESILKVNLARLTLFHIEQGKTVEEAADLSLGYMKSRVKGLGGLIVVSKTGDWVAKWTSTSMPWAAAKDGKLHFGIDPDDTTITDLP
B7: sacB Y247F (Priestia megaterium, UniProt D5DC07); chain KGNDSKDFNNSYGISHITRDNMVKIPQQQNSDQFKVPAFDESTIKNIASAKGKNASGNTIDLDVWDSWPLQNADGTVATYHGYQIVFALAGDPKDSNDTSVYLFYKKAGDKSIDSWKNAGRVFKDSDKFVPNDPHLKNQTQEWSGSGTLTKDGKVRLFYTDYSGKQYGKQTLTTAQVNMSQPNDNTLKVDGVEDYKSIFDGDGKIYQTVQQFIDEGGFDTGDNHTLRDPHYIEDNGHKYLVFEANTGTEDGYQGEDSLYNRAYYGGNNPFFQSEKKKLLEGSNKEKASLANGALGIIELNDDYTLKKVMKPLITSNTVTDEIERANIFKKDGKWYLFTDSRGSKMTIDGIGQDDVYMLGYVSNTLTGKYKPLNDTGLVLHMDLDPNDKTFTYSHFAVPQTKGDNVVITSYMTNRGFYEDNHSTFAPSFLVNIDGSKTSVVKDRVLEQGQLTVDED
B8: GTPBP3 P257H (Homo sapiens, UniProt Q969Y2); chain TRRSSGAPAPGSGATIFALSSGQGRCGIAVIRTSGPASGHALRILTAPRDLPLARHASLRLLSDPRSGEPLDRALVLWFPGPQSFTGEDCVEFHVHGGPAVVSGVLQALGSVPGLRPAEAGEFTRRAFANGKLNLTEVEGLADLIHAETEAQRRQALRQLDGELGHLCRGWAETLTKALAHVEAYIDFGEDDNLEEGVLEQADIEVRALQVALGAHLRDARRGQRLRSGVHVVVTGHPNAGKSSLVNLLSRKPVSIVSPEPGTTRDVLETPVDLAGFPVLLSDTAGLREGVGPVEQEGVRRARERLEQADLILAMLDASDLASPSSCNFLATVVASVGAQSPSDSSQRLLLVLNKSDLLSPEGPGPGPDLPPHLLLSCLTGEGLDGLLEALRKELAAVCGDPSTDPPLLTRARHQHHLQGCLDALGHYKQSKDLALAAEALRVARGHLTRLTGGGGTEEILDIIFQDFCVGK
B9: enzyme (Bacillus pumilus, UniProt A8FFI9); chain EARSIAWSVDEFFKNREGTFVIQEVKEKSPWVYNKKRAKERFAPQSTFKVANALIGLQTGAVRDEYDIKYWDGVKREIDNWNRDHTLGSGMRDSVVWYYQAMARDIGEERMNHWVKAIHYGNKDISGGIDQFWLSSTLRISPIEQVRFLKQLYEETLPFDLKNMRTVKRMMVQEEEKHATLYGKTGSGSDIGWYVGFIKHEHKTYILATNIKGTGIEAKDITYRILKKYHLMEASV
B10: enzyme (Thermobifida fusca, UniProt Q47RA9); chain MIMIMASKSSPHDLPDVSGLSIAVLGGTGDQGRGLARRFAMAGHEVILGSRSAERAQAVAAELGEGLPVRGMDNAGAAEAGDVVIVAVPWDGHRALLESLKDVLAGKIVVDCVNPLGFDKRGAYALPVEEGSAAEQAAAILPDSRVVAAFHHVSAVLLLDPEVEKVDLDVLVLGDDREATDVVRALAARIPGVRGVYGGRLRNAHQVEAFTANLISINRRYKAHAGIRITDI
B11: Pck1 A467G (Rattus norvegicus, UniProt P07379); chain MPPQLHNGLDFSAKVIQGSLDSLPQEVRKFVEGNAQLCQPEYIHICDGSEEEYGRLLAHMQEEGVIRKLKKYDNCWLALTDPRDVARIESKTVIITQEQRDTVPIPKSGQSQLGRWMSEEDFEKAFNARFPGCMKGRTMYVIPFSMGPLGSPLAKIGIELTDSPYVVASMRIMTRMGTSVLEALGDGEFIKCLHSVGCPLPLKKPLVNNWACNPELTLIAHLPDRREIISFGSGYGGNSLLGKKCFALRIASRLAKEEGWLAEHMLILGITNPEGKKKYLAAAFPSACGKTNLAMMNPTLPGWKVECVGDDIAWMKFDAQGNLRAINPENGFFGVAPGTSVKTNPNAIKTIQKNTIFTNVAETSDGGVYWEGIDEPLAPGVTITSWKNKEWRPQDEEPCAHPNSRFCTPASQCPIIDPAWESPEGVPIEGIIFGGRRPAGVPLVYEALSWQHGVFVGAAMRSEATAGAEHKGKVIMHDPFAMRPFFGYNFGKYLAHWLSMAHRPAAKLPKIFHVNWFRKDKNGKFLWPGFGENSRVLEWMFGRIEGEDSAKLTPIGYVPKEDALNLKGLGDVNVEELFGISKEFWEKEVEEIDKYLEDQVNADLPYEIERELRALKQRISQM
B12: Paox H64A (Mus musculus, UniProt Q8C0L6); chain MAFPGPRVLVVGSGIAGLGAAQKLCSHRAAPHLRVLEATASAGGRIRSERCFGGVVELGAHWIAGPSQDNPVFQLAAEFGLLGEKELSEENQLVDTGGHVALPSMIWSSSGTSVSLELMTEMARLFYGLIERTREFLNESETPMASVGEFLKKEISQQVASWTEDDEDTRKRKLAILNTFFNIECCVSGTHSMDLVALAPFGEYTVLPGLDCILAGGYQGLTDRILASLPKDTVAFDKPVKTIHWNGSFQEAAFPGETFPVLVECEDGARLPAHHVIVTVPLGFLKEHQDTFFEPPLPAKKAEAIKKLGFGTNNKIFLEFEEPFWEPDCQFIQVVWEDTSPLQDTALSLQDTWFKKLIGFLVQPSFESSHVLCGFIAGLESEFMETLSDEEVLLSLTQVLRRVTGNPQLPAAKSVRRSQWHSAPYTRGSYSYVAVGSTGDDLDLMAQPLPEDGTGTQLQVLFAGEATHRTFYSTTHGALLSGWREADRLVSLWDSQVEQSRPRL
UniProt P07914, sequence (whole entry, looked up): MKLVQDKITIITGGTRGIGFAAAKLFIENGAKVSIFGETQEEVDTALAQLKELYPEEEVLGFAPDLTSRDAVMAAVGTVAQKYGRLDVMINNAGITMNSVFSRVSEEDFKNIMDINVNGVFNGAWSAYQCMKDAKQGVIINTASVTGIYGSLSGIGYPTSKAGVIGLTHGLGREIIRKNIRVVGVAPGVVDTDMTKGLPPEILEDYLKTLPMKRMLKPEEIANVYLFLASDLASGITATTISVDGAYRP
UniProt P76044, sequence (whole entry, looked up): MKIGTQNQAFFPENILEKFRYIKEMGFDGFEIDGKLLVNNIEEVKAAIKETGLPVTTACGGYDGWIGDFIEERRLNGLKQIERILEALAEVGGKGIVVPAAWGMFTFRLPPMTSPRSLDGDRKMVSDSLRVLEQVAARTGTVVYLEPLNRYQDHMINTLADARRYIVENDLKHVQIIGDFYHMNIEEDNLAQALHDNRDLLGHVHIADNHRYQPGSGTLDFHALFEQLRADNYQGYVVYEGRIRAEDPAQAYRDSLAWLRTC
UniProt P49419, sequence (whole entry, looked up): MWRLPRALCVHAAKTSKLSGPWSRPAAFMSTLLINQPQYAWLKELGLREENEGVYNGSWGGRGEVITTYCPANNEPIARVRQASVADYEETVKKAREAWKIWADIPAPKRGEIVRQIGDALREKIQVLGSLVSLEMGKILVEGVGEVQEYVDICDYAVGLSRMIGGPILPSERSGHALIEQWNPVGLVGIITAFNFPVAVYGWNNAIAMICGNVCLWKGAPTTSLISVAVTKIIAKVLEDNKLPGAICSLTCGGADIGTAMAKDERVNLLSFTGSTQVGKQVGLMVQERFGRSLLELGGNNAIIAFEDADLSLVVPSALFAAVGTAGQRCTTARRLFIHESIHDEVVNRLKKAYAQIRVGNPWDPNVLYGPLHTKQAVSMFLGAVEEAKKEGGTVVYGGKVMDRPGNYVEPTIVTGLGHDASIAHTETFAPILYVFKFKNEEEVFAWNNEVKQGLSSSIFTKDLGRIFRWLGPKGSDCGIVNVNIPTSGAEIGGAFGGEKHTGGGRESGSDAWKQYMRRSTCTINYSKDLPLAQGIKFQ

Substance	substrate	conditions	kcat [s⁻¹]
pgmB T16P (Lactococcus lactis) (sequence not shown)	O=P(O)(O)OC[C@H]1O[C@@H](OP(=O)(O)O)[C@H](O)[C@@H](O)[C@@H]1O	pH 7, 25 °C	0.38 ± 0.01
speG (Vibrio cholerae, UniProt Q9KL03)	CC(=O)SCCNC(=O)CCNC(=O)[C@H](O)C(C)(C)COP(=O)(O)OP(=O)(O)OC[C@H]1O[C@@H](n2cnc3c(N)ncnc32)[C@H](O)[C@@H]1OP(=O)(O)O	pH 9, 37 °C	92.1
B1 (protein F222A)	CC(C)=CCC/C(C)=C/COP(=O)(O)OP(=O)(O)O	added: tri-Tyr peptide acceptor	0.122 ± 0.00433
B2 (cyc1 V329M)	CC(C)=CCC/C(C)=C/CC/C(C)=C/CO[P@@](=O)(O)OP(=O)(O)O	pH 6.5, 30 °C, added: MgCl2 10 mM	0.00064 ± 4e-06
B3 (enzyme)	Nc1ncnc2c1ncn2[C@@H]1O[C@H](COP(=O)(O)OP(=O)(O)OP(=O)(O)O)[C@@H](O)[C@H]1O	pH 8, 37 °C	0.08 ± 0.01
ALDH7A1 (Homo sapiens, UniProt P49419)	N[C@@H](CCCC=O)C(=O)O	pH 8, added: NAD+ 2.5 mM, pyrophosphate 50 mM	0.38 ± 0.02
B4 (onr)	CC(C)=CCC/C(C)=C/C=O	pH 7, 25 °C, apparent, anaerobic, added: NADPH 100 µM	0.24 ± 0.004
B5 (SUOX R529M/V531M/Y400N)	O=[N+]([O-])O	pH 7, 25 °C, added: dithionite-reduced methyl viologen	1.07
B6 (ASRGL1)	CC(C)C[C@H](NC(=O)C[C@H](N)C(=O)O)C(=O)O	pH 7.4, 37 °C, NaCl 100 mM	5 ± 0.2
BaiA1 (Clostridium scindens, UniProt P07914)	C[C@H](CCC(=O)SCCNC(=O)CCNC(=O)[C@H](O)C(C)(C)COP(=O)(O)OP(=O)(O)OC[C@H]1O[C@@H](n2cnc3c(N)ncnc32)[C@H](O)[C@@H]1OP(=O)(O)O)[C@H]1CC[C@H]2[C@@H]3[C@H](O)C[C@@H]4CC(=O)CC[C@]4(C)[C@H]3CC[C@]12C	pH 8.7, 37 °C, added: NADH	0.4
B7 (sacB Y247F)	OC[C@H]1O[C@@](CO)(O[C@H]2O[C@H](CO)[C@@H](O)[C@H](O)[C@H]2O)[C@@H](O)[C@@H]1O	pH 6.9	254 ± 3.5
B8 (GTPBP3 P257H)	Nc1nc2c(ncn2[C@@H]2O[C@H](COP(=O)(O)OP(=O)(O)OP(=O)(O)O)[C@@H](O)[C@H]2O)c(=O)[nH]1	pH 8, 37 °C, KCl 300 mM	0.00817 ± 0.00117
B9 (enzyme)	CCN1CCN(C(=O)N[C@@H](C(=O)N[C@@H]2C(=O)N3[C@@H]2SC(C)(C)[C@@H]3C(=O)O)c2ccccc2)C(=O)C1=O	pH 7	60 ± 2
B10 (enzyme)	NC(=O)c1ccc[n+](CCCO)c1	pH 8, 25 °C	0.00417 ± 0.000217
B11 (Pck1 A467G)	Nc1nc2c(ncn2[C@@H]2O[C@H](COP(=O)(O)OP(=O)(O)O)[C@@H](O)[C@H]2O)c(=O)[nH]1	pH 7.5, 25 °C	1 ± 0.1
B12 (Paox H64A)	CC(=O)NCCCNCCCCNCCCN	pH 10, 30 °C	3.1 ± 0.1
DAD V1M (Burkholderia sp.)	O=C(CO)c1ccc(O)cc1	pH 6, 20 °C, added: O2	2.42 ± 0.03
ycjR (Escherichia coli, UniProt P76044)	CO[C@H]1O[C@H](CO)[C@@H](O)C(=O)[C@H]1O	pH 8, 30 °C, added: MnCl2 0.5 mM, NADH 0.3 mM	19.2 ± 1.7

Excerpt of the above:
Substance	substrate	conditions	kcat [s⁻¹]
ALDH7A1 (Homo sapiens, UniProt P49419)	N[C@@H](CCCC=O)C(=O)O	pH 8, added: NAD+ 2.5 mM, pyrophosphate 50 mM	0.38 ± 0.02
B4 (onr)	CC(C)=CCC/C(C)=C/C=O	pH 7, 25 °C, apparent, anaerobic, added: NADPH 100 µM	0.24 ± 0.004
